Experimental data from different studies.
Every numbered part comes from another study and shows a few of its results, in no order.

Series 1 — technique: protein-binding microarray; molecule type: double-stranded DNA, one strand shown; matrix: in vitro; concentration: 2540 nM top; setting: 60-bp whole probe; together with: salmon DNA 0.4 mg/ml; relative to: random background probes; direction: higher = stronger binding; endpoint: fitted relative affinity; all sequences stand within: GCCTAGCAC … GTCTTGATTCGCTTGACGCTGCTG
Target: Interferon regulatory factor 3, full length, phosphomimetic (IRF3, Homo sapiens, UniProt Q14653, residues 1-427, S386D/S396D/S398D/S402D/T404D/S405D)
Construct (chain): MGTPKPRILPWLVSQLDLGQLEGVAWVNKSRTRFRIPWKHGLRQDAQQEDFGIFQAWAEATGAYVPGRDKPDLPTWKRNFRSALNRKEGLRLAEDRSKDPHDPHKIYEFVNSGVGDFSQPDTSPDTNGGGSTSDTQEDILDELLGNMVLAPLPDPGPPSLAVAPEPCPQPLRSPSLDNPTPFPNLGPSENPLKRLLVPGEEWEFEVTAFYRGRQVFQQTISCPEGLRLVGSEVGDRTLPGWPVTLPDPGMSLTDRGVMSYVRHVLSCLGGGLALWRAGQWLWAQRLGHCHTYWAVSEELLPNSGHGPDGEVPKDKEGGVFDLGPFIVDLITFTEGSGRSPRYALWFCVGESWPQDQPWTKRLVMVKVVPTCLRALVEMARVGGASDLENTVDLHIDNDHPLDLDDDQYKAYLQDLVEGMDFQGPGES
GACGGTTTCGACTATTGGGACGTGCTA: 2.69 z-score
TTAGAACTGGGGTATCGAGTAGTGCTA: -0.864 z-score
GAATCTCCCATTATATTTTAGTGCTAG: 1.75 z-score
CGAGTTTTCTCTCCCATTCTGTGCTAG: 1.51 z-score
GACGACATCGGGACTGGAGACGTGCTA: -0.56 z-score
CTAGGTCTCCTTTTCCTTTAGTGCTAG: 5.08 z-score
TTAGGAATCGGTATCGGTTAGTGCTAG: 3.1 z-score
GACGGCCTGGACTTTCGGGACGTGCTA: -0.419 z-score
TTAGATCTCCGACTGGATTAGTGCTAG: 0.194 z-score
GATGATTTCAGACTGGAGACGTGCTAG: 0.348 z-score
GACGGGTTCGGTTTCGGGACGTGCTAG: 4.77 z-score
GACCGTTTCGGGTATCGGGACGTGCTA: 4.52 z-score
GTAGTAATCTTAAGGCTGTCGTGCTAG: -0.0842 z-score

Series 2 — technique: RNA Bind-n-Seq; molecule type: RNA; matrix: in vitro; concentration: not given; setting: RNA with constant flanks, ends assumed; relative to: input RNA pool; direction: higher = stronger binding; endpoint: bound/input enrichment
Target: RING finger protein unkempt homolog, zinc fingers 1-6, GST-SBP tag (UNK, Homo sapiens, UniProt Q9C0B0, residues 30-357)
Chain of UniProt Q9C0B0 (30-357, looked up): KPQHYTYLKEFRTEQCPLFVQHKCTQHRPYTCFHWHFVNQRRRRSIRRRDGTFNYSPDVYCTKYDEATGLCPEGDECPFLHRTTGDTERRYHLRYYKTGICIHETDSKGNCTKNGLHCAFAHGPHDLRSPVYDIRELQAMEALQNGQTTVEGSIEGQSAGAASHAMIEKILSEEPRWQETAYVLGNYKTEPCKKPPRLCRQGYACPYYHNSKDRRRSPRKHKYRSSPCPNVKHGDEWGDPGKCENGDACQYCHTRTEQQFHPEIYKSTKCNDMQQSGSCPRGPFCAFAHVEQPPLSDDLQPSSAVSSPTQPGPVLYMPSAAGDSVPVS
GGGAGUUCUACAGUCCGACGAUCGAAUUUGGACAAGUUUUGGCUUCCUGUUCUUUUGACCGAACAGCAGCUGUAUGGGAAGAAACCGUGGGAGAAUCAAACGAUAAACUUCGAGGACAGAGUCACUGGGUGAAGAGGACAACUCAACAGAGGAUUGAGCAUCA: 0.111 ratio
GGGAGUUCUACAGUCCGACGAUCAGGGAGCUUCCAGGAAGACUUGCCUCAAACAACUGAGCCAAAGACAGACUGGUUAGAACGCCGUCAUAUGCUUUUGUGUGCAAAUAAUAUUUUCAAAGAACUAAUAAUAAUUUGAUUGAGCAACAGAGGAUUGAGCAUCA: 1.06 ratio
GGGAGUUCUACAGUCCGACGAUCAUCAAGCAGCUGUUGCAAUCUGCCCACAAAGAAUCCAGCUUUGACAUUAUUUUGUCAGGUUCCGUCCCAGGAAGCACCACUCUGCACAGUGCUGAGAUUUUGGCUGAAAUCGCCCGGAUCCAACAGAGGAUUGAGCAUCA: 0.129 ratio
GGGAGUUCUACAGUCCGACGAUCAAAGCAAUAAAUGUAGAUCUUCAAAGUGAUGCUGCUCUGCAGGUGGACAUUUCUGAUGCUCUCCGUGAGCGGGAUAAAGUAAAAUUCACUGUUCACACAAAGAGUUCAUUGCCAAAUUUUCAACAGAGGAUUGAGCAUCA: 0.358 ratio
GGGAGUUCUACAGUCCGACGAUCCCCGCCCGCCCGCCUCCCUGCCGGCCCAUCCACACCCUGCGUCCACACCACUUCCAACCUCACCGGAGCCGAUGUAUUUAUUUUCCUUGAGUUUUUAUUUAUGCUGUAACCUGUAUCAAGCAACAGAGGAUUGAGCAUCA: 0.535 ratio
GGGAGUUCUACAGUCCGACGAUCUUUCCGUCUUUUGGAAGUGGAUUUUCUUCUUUUGAUACAGGAUUUACUUCAUUUGGGUCACCCGGUCACGGGGGCCUCACUUCAUUCUCUUCCACGUCAUUUGGUGGUAGUGGCAUGGGCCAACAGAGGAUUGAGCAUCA: 0.199 ratio
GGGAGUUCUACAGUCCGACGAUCCGAAACAGCAGCAGGUGACGACGGAGAUGAAGUAUUUGUAGAGGCGGAGUCUGAAGGUAUCCGUUCAGAGGCAGGCCUAGAAAUUGAUAGCCAGCAGGAAGAGGAGCCUGUCCAAGCAUCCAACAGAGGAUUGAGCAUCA: 0.495 ratio

Series 3 — technique: Sort-seq; measured: YFP reporter; matrix: E. coli; setting: PhoQ-PhoP variant library; together with: 10 µM Mg2+; relative to: high Mg2+ state; direction: higher = stronger signaling; endpoint: fold induction
Substance: PhoQ, residues 284 288 289 292 302 303 SQSLSM
PhoP, residues 12 14 15 18 19 TQCLL (Escherichia coli, UniProt P23836): 4.26
PhoP, residues 12 14 15 18 19 VHTVL (Escherichia coli, UniProt P23836): 4.24
PhoP, residues 12 14 15 18 19 ICWRQ (Escherichia coli, UniProt P23836): 3.49

Series 4 — technique: RNA Bind-n-Seq; molecule type: RNA; matrix: in vitro; concentration: 1 µM; setting: whole 134-nt RNA, ends assumed; together with: 150 mM KCl; relative to: input library; direction: higher = stronger binding; endpoint: log2 enrichment
Target: Ras GTPase-activating protein-binding protein 1, RRM domain (G3BP1, Homo sapiens, UniProt Q13283)
Chain of UniProt Q13283 (whole entry, looked up): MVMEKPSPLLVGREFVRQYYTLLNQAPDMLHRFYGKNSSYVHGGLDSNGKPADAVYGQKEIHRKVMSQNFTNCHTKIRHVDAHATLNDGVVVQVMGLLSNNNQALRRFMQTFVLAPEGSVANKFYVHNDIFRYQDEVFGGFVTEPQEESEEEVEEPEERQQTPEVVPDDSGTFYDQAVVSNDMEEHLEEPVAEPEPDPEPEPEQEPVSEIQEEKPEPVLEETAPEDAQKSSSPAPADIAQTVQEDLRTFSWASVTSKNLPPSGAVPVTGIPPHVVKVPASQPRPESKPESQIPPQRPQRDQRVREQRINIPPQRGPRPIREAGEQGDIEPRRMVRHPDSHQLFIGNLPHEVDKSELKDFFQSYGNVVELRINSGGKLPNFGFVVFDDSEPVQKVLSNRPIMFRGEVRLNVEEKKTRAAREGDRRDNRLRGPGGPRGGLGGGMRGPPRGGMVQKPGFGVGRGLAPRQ
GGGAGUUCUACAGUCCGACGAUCAAGACAUUUGUUGUAUUUAUGGUUGUAACUGUACAUGCUUAUCAGGAUGAGACUGAAAGAAGGUAGGGCAAAAAUGGUUGAAUCUAUUUUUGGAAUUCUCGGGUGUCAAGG: -0.277
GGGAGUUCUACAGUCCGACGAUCAGUCCUGUGCUACACAUCGUAUGUACCGAAUCAAACCCAAACCCAAAUUUUUUUAAAAAAGUAUUAUGUUACGCCGUUCGGAUCUGCACUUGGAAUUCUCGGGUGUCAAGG: -0.505
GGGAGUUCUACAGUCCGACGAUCCUCAAGUCCUGUGCUACACAUCGUAUGUACCGAAUCGGCCGGCCGGGGCCGGGGAAAGUAUUAUGUUACGCCGUUCGGAUCUGCACUUCCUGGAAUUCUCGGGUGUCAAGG: -0.457
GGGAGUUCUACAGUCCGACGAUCAAGUCCUGUGCUACACAUCGUAUGUACCGAAUCGGGCCCCGGGGCCCCGGGCCCCGGAAAGUAUUAUGUUACGCCGUUCGGAUCUGCACUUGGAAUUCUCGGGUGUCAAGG: -0.605
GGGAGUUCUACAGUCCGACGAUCCUCAAGUCCUGUGCUACACAUCGUAUGUACCGAAUCGGAGGUGGUUUUUUUGGAAAGUAUUAUGUUACGCCGUUCGGAUCUGCACUUCCAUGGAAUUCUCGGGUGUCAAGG: -0.278
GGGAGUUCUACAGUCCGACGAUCACCAUGCAGGUGGGCAUCUUUGGGAAGUGGGGCAAGGGGGGGAUAGGGAGGGGGGUAACACUUUGGGAACAGGUGGUCACAGGUCGUUUCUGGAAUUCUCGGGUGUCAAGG: 0.902
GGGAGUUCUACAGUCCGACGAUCCCUCAAGUCCUGUGCUACACAUCGUAUGUACCGAAUCGGAAAAAGGUGGAGGAAAGUAUUAUGUUACGCCGUUCGGAUCUGCACUUCCAGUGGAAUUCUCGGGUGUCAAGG: -0.0744
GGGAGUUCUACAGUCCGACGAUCAAGUCCUGUGCUACACAUCGUAUGUACCGAAUCGGGUUUUUUUGGGAGGGUUUGGGAAAGUAUUAUGUUACGCCGUUCGGAUCUGCACUUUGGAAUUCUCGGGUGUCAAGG: 0.156
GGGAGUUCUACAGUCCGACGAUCUGGCCCUGGUGGCAUGCGGGGAGGAAGAGGUGGCCUCAUGGAUCGUGGUGGUCCCGGUGGAAUGUUCAGAGGUGCCCGUGGUGGAGACAGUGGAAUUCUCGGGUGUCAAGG: 1.37
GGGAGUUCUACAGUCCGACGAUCUUGCAGGAGCCGCCGCGCCUCGGCCUAGCAUGUCGGAAGCGGGCGAGGAGCAGCCCAUGGAGACGACGGGCGCCACCGAGAACGGACAUGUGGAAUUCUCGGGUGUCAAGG: -0.524
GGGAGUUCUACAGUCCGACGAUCUGGGAGGUGGAUUUUGUUUAUUUUUUUAGCUCCUUUCCAGGGGUGGGAAUUUUUUUUUAAUAUGUGUCAUGAAUAAAGUUGUUUUUGAAAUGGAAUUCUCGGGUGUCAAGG: 1.59

A few entries again (series 4):
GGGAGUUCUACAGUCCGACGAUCACCAUGCAGGUGGGCAUCUUUGGGAAGUGGGGCAAGGGGGGGAUAGGGAGGGGGGUAACACUUUGGGAACAGGUGGUCACAGGUCGUUUCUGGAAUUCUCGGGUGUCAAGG: 0.902
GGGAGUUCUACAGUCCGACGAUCCCUCAAGUCCUGUGCUACACAUCGUAUGUACCGAAUCGGAAAAAGGUGGAGGAAAGUAUUAUGUUACGCCGUUCGGAUCUGCACUUCCAGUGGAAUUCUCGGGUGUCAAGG: -0.0744
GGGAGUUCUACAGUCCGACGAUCAAGUCCUGUGCUACACAUCGUAUGUACCGAAUCGGGUUUUUUUGGGAGGGUUUGGGAAAGUAUUAUGUUACGCCGUUCGGAUCUGCACUUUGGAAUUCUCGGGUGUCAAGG: 0.156
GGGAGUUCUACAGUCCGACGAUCUGGCCCUGGUGGCAUGCGGGGAGGAAGAGGUGGCCUCAUGGAUCGUGGUGGUCCCGGUGGAAUGUUCAGAGGUGCCCGUGGUGGAGACAGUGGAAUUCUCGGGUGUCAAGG: 1.37
